Results of several laboratories.
A part holds a random share of what one study measured.

Series 1 — method: RNA Bind-n-Seq; molecule type: RNA; matrix: in vitro; concentration: 365 nM; relative to: no-protein control; reading: higher = stronger binding
Target: RNA binding protein fox-1 homolog 2, RRM domain, GST-SBP tag (RBFOX2, Homo sapiens, UniProt O43251-10, residues 100-194)
Notes: natural RNA segment, single round, ends assumed
Constant ends, left off below: GGGAGUUCUACAGUCCGACGAUC … UGGAAUUCUCGGGUGCCAA
Under “RBNS enrichment (R)”, `GGUUGGGUGGGAAGGAAGGCUGGGGGUUUUGUAAAGUGUCCACUGCUCGUCCUGUUAAUUUUCCUCAAUUUUUCUUCUUCUUCCUUCUGUCCCUCCUGCCUUCCUUCUCU` is recorded as 2.57.
`GCCAUUUUUGCCAACAAUAGCUUGUGGCUCCCCACAUUUUCCUACCCUGCACUCAAGGGCCAGACCACUCUCUGCAUGGACCAGACCAUCUUCCCAAACCCAUGGUGCUU` — result for “RBNS enrichment (R)”: 1.93.
For `CUCCUGCACUUUGGCCCCACCCACCCAUCCUAGCCUCUCAUGGCCUCCCACCCCCAUGGGUGCUAGGAGGAGGUGACUUUAUAUACCAGCUUCAUUGGGCUGCUUCCUCU`, “RBNS enrichment (R)” read 0.403.
`GGUUGUUAAGUGUUCUCUCUUUGCUUCCGUUUACUGAGUUUUCAAAGGUUUGUGGGAAAAUGUAGGUGAUUUAGAGAGAACCUUGUGUAGUUUUUCUUACGACUCAGACA`: “RBNS enrichment (R)” 1.83.
For `UCCAGACCUUAUCCACAACCCGGGGCUUGGAAAGGAAGGUAUUUUGGAAUCACACCCUCCGGUUAUGUUGCUCCAGUAAAAUCUUGCCUGGAAAGAGGCAGUCUUCUUAG`, “RBNS enrichment (R)” read 0.593.
Under “RBNS enrichment (R)”, `AGAUGGCCAUAGGGGACAGCACACUUGAUGGUUGUUGCCGAAGUAUUUUCUAACAGAAACUCUUAGGUGGAAUGUUUCUGAAGGCUUUAAAAAAAAUACAAUAAAGUAAA` is recorded as 0.542.
`GCUCUCUUCUAAGUAGAAUGUUCAAUGUAACUAAAACUAAAAUUGCAUGUCAAAGAGACCUAGGUUCUUUCUUUCUUUCUUUCUCUCUUUCUUUCAGUUUGCUUUUGGUU`: “RBNS enrichment (R)” 1.97.
`CUAGUAUAGAAGUGGCAUAUCCCACUAGCUUCUACUUUCCUGAUAUAUUUUUACAAAUAACUUUAUUUGCUUUACAUUAUUUCUAAAAGGAAAAAUCUGAGGAAACCCUU`: “RBNS enrichment (R)” 0.51.
For `GGAGGUGGCCCUGCCGGCUCCGCGCUGCUGUGCCUGUGAUCCCUACCUGCUCCCCGCUCCUGUUGCCAGCAGCACUCACUGCACUCCUUUGUCAUAUACUCUGCAUCACU`, “RBNS enrichment (R)” read 1.35.
`UUUCAGUUUUCAUUUCGACAAACAAGCACUGUAAUUAUAGCUAUUAGAAUAAAAUCUCUUAACUAUUUCACCGGCUCUCCAGUGCUUCCACACAGGCAUGCUGCCCCCAG` — result for “RBNS enrichment (R)”: 0.664.
Under “RBNS enrichment (R)”, `GAGUGUUUACACUGGUUGAUGCUUACACAGCCUGAACUCAGUGCCUCAAACUCCUCUGUGACCAGUUUUGUCUCCAAGCACAUAACUCAUUCUCUCUAAUCUGAUGUCUC` is recorded as 0.362.
For `AUAUUUGCAAAUUGCCAUCUAUUGAAAUUCUCGUCACACUACAUAGACAUAAUUGUUAUCUCCUUUUGGCUUAUGUGAUUUUCUGUUUACAAGUAGAAUAGCCAAUUAUU`, “RBNS enrichment (R)” read 0.436.

Series 2 — method: RNA Bind-n-Seq; molecule type: RNA; matrix: in vitro; concentration: 200 nM; notes: whole 134-nt RNA, ends assumed; together with: 150 mM KCl; relative to: input library; reading: higher = stronger binding
Target: Fragile X messenger ribonucleoprotein 1, C-terminal low-complexity region (Fmr1, Mus musculus, UniProt P35922)
Constant ends, left off below: GGGAGUUCUACAGUCCGACGAUC … UGGAAUUCUCGGGUGUCAAGG
`CCUGUGCUACACAUCGUAUGUACCGAAUCGGGAAAAAAAGGAAAAAAAGGGAAAAAAAGGAAAGUAUUAUGUUACGCCGUUCGGAUCUGC` gave a log2 enrichment of -0.682.
`UUUCACUUCCAGCCAGCUGUGAAGAAGGUGAGCUUGCCUUCCAUCUUCCCCCCUAUCCGCCGCGUAUCUCCGUCGUCUGCAAGCGCGUGA` has a log2 enrichment of 0.11.
With `UGGGUGGUGGAUUUUGUUUAUUUUUUUAGCUCAUUUCCAGGGGUGGGAAUUUUUUUUUAAUAUGUGUCAUGAAUAAAGUUGUUUUUGAAA` the log2 enrichment was 0.38.
With `UUCCUCAAGUCCUGUGCUACACAUCGUAUGUACCGAAUCGUGUGUGUGUGUAAAGUAUUAUGUUACGCCGUUCGGAUCUGCACUUCCAGC` the log2 enrichment was -0.15.
`ACCAUGCAGGUGGGCAUCUUUGGGAAGUGGGGCAAGGGGGGGAUAAAAAGGGGGGUAACACUUUGGGAACAGGUGGUCCCAGGUCGUUUC` gave a log2 enrichment of 0.303.
`GUCCUGUGCUACACAUCGUAUGUACCGAAUCGGGGCCCCGGGGCCCCGGGGCCCCGGGGAAAGUAUUAUGUUACGCCGUUCGGAUCUGCA` gave a log2 enrichment of 1.1.
`AAGUCCUGUGCUACACAUCGUAUGUACCGAAUCGGGUGGGUUUUUGGGUUUUUGGGAAAGUAUUAUGUUACGCCGUUCGGAUCUGCACUU` gave a log2 enrichment of 0.486.
With `GGUAUUCUGCAAGUACUGUAGAUGUUAUAGAAAUGAUGGAGGAUGAUAAAGUUGAUCUGAAUUUGAUUGUUGCCCUCAUCCGAUACAUUG` the log2 enrichment was -1.51.
The log2 enrichment of `CCUGUGCUACACAUCGUAUGUACCGAAUCGGGGAAAAAAAGGGGAAAGGGGUUUUUGGGGAAAGUAUUAUGUUACGCCGUUCGGAUCUGC` is reported as 0.298.
`UGGGAGGUGGAUUUUGUUUAUUUUUUUAGCUCAUUUCCAGGGGUGGGAAUUUUUUUUUAAUAUGUGUCAUGAAUAAAGUUGUUUUCGAAA` gave a log2 enrichment of 0.483.
For `UUUUAGAAAGAGAAGGGGAAGAAAAUGAAGCCUUACAUAAGAUGAUUGCAAACGAGCAAAAGACUUCUCUCCCAAAUUUGUUCCAGGAUA`, the log2 enrichment was -1.29.
`UCUAUUCAUAAGAACCCCAACACAUCGGAGCCCCAACACCUGUUGGUGAUGAAGGGCGCCCCAGAAAGGAUCCUAGACCGUUGCAGCUCU` gave a log2 enrichment of -0.303.
With `CCUCAGUGUCAUUUAUGAAAAGAGGGGACCAGAAGCCAAAGACUUAGUAUAUUUUCUUUUCCUCUGUCCCUUCCCCCAUAAGCCUCCAUU` the log2 enrichment was 0.0111.
`CUGUGCUACACAUCGUAUGUACCGAAUCGGGGUUUUUUUGGGGUUUUUUUGGGGUUUGGGGAAAGUAUUAUGUUACGCCGUUCGGAUCUG` gave a log2 enrichment of -0.406.

Series 3 — method: protein-binding microarray; molecule type: double-stranded DNA, one strand shown; matrix: in vitro; concentration: 250 nM; notes: 60-bp whole probe; together with: salmon DNA 0.4 mg/ml; relative to: random background probes; reading: higher = stronger binding; constant ends, left off below: GCCTAGCAC … GTCTTGATTCGCTTGACGCTGCTG
Target: Interferon regulatory factor 7, full length, phosphomimetic (IRF7, Homo sapiens, UniProt Q92985, residues 1-503, S101K/S471D/S472D/S475D/S476D/S477D/S483D/S484D/S487D)
Target sequence (chain): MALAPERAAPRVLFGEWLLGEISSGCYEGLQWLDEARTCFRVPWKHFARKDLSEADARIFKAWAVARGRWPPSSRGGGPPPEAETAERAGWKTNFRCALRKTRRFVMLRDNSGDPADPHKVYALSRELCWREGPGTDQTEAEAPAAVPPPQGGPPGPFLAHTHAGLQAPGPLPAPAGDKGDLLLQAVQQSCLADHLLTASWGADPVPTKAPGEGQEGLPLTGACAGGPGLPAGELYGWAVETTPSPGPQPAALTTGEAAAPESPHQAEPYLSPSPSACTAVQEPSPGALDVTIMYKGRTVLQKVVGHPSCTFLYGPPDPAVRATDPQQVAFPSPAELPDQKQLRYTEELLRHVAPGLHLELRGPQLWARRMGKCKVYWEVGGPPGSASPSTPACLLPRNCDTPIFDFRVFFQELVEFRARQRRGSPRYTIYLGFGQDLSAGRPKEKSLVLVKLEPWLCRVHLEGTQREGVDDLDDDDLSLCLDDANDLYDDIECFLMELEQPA
The log fluorescence of `CTTGCCCACTTCTGTGACAGGTGCTAG` is reported as 1.42 z-score.
With `GACGGACTGTTTCTCCTGACGTGCTAG` the log fluorescence was 0.42 z-score.
For `GACGGACTGGACTTTCGGCACGTGCTA`, the log fluorescence was -0.841 z-score.
For `TCAAGGTTCAAGTTTACCACTGTGCTA`, the log fluorescence was 0.048 z-score.
The log fluorescence of `TCATTTTTCCCCTGCACACTGTGCTAG` is reported as 1.51 z-score.
The log fluorescence of `ATAGGTCTCGGACTGGGTTAGTGCTAG` is reported as 0.664 z-score.
`GACGTTTTCGACACTGGGGACGTGCTA` has a log fluorescence of 0.92 z-score.
For `GACGGACTGTGACTGGGGACGTGCTAG`, the log fluorescence was -0.428 z-score.
For `CGCGCTTCTCGGCGGCGAAGGTGCTAG`, the log fluorescence was 0.348 z-score.
For `AGCCTGGCCAAGCTCACAGCGTGCTAG`, the log fluorescence was -1.12 z-score.
With `TTAGGTTGCGGTTTCGGTTAGTGCTAG` the log fluorescence was 9.02 z-score.
`TCAACTCTCTACATGTGACTGTGCTAG` has a log fluorescence of 0.0464 z-score.
`GACGGTATCGGTCTCGTGACGTGCTAG` has a log fluorescence of 0.457 z-score.
`AGGCATGTGGGTTCCATCATGTGCTAG` gave a log fluorescence of -0.602 z-score.
The log fluorescence of `GGGAACTTAAACCTCTAAAGGTGCTAG` is reported as 0.197 z-score.
With `TTAGATCTCAGTCTCGAGTAGTGCTAG` the log fluorescence was 0.38 z-score.
`TCAAATCTCTCTTCACAACTGTGCTAG` has a log fluorescence of 0.779 z-score.
With `TTAGGTATCGACGATCGGTTAGTGCTA` the log fluorescence was -0.336 z-score.
`TCAAGCTTTTCATTTTTTACTGTGCTA` gave a log fluorescence of 0.145 z-score.
`TTAGAACTGGGGTTTCAATTAGTGCTA` gave a log fluorescence of -0.317 z-score.
`GTGTTACTAAAATTTCATGAAGTGCTA` has a log fluorescence of 1.51 z-score.
The log fluorescence of `TTTCCACTTTCTTTTGCTTGGTGCTAG` is reported as 3.96 z-score.
With `TAAGGTATCCTTATCCTTTAGTGCTAG` the log fluorescence was 0.612 z-score.
`GACGGTATCGGGTTTCGGGCCGTGCTA` has a log fluorescence of 2.04 z-score.
With `TCAGGTTAAAATTTTGCACTGTGCTAG` the log fluorescence was -0.188 z-score.

Series 4 — method: universal PBM; molecule type: double-stranded DNA, one strand shown; matrix: in vitro; concentration: 600 nM; reading: higher = stronger binding
Target: Sal-like protein 4, full length isoform A (SALL4, Homo sapiens, UniProt Q9UJQ4, residues 1-1053)
Sequence of UniProt Q9UJQ4 (whole entry, looked up): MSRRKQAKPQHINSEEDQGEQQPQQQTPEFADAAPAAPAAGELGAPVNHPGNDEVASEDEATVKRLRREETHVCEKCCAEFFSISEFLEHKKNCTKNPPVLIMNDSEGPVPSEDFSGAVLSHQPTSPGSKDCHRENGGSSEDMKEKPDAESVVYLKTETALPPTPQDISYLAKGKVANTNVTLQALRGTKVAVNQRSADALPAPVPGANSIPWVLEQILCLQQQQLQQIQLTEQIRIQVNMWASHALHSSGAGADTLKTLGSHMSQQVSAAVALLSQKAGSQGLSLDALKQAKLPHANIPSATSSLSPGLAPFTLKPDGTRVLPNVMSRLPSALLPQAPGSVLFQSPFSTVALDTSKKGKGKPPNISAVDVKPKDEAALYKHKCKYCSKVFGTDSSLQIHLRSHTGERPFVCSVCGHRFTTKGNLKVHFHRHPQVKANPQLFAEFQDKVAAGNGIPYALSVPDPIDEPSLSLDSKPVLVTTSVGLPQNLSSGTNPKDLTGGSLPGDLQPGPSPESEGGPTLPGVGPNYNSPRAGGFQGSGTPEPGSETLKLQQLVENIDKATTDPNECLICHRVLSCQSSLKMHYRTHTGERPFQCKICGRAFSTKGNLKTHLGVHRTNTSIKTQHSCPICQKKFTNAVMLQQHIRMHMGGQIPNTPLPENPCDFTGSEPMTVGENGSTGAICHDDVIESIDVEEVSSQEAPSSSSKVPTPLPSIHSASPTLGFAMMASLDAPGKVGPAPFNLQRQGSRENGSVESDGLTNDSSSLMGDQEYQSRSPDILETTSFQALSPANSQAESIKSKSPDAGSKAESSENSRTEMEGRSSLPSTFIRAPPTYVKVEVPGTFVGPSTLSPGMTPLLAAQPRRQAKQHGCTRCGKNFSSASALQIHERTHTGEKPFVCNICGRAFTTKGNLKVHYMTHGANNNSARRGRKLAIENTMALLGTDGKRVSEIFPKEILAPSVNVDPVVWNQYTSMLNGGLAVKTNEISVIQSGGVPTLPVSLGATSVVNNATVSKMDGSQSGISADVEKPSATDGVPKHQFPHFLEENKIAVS
Notes: 8-mer, flanks averaged, mean of replicates
`AATGAACA` gave an E-score of 0.173.
The E-score of `CTGAGGGC` is reported as -0.321.
For `TCGCCAGA`, the E-score was -0.051.
`CAGTGCAG` gave an E-score of -0.254.
With `AGTGGATC` the E-score was -0.106.
With `CACGTTAC` the E-score was -0.00517.
The E-score of `AAATGCAG` is reported as 0.0758.
The E-score of `CGGTTCGA` is reported as -0.135.
`AGCTTAAG` has an E-score of 0.0483.
For `ATGGTAGC`, the E-score was -0.113.
`ACTCGCTC` gave an E-score of -0.145.
For `ACTCGCTG`, the E-score was -0.186.
The E-score of `GCGCATAA` is reported as 0.18.
The E-score of `CCTATAAG` is reported as 0.0206.
For `GCTTTCAC`, the E-score was -0.0687.
For `ACAAGTCC`, the E-score was -0.0274.
With `CCTAGACA` the E-score was -0.152.
`AGACTGAG` has an E-score of -0.11.
`ACCCACGC` gave an E-score of -0.216.
`ACACACCT` has an E-score of 0.0797.
`AGTCTCTG` has an E-score of -0.179.
For `AACTCCCT`, the E-score was -0.0967.
`ACCACGGG` has an E-score of -0.298.
`CGACGAAC` gave an E-score of -0.133.
`CAAGGCGA` gave an E-score of -0.215.
